# Results from different studies.
# Parts stem from different laboratories: compare values within a part only.

# Set 1 — method: protein-binding microarray; molecule type: double-stranded DNA, one strand shown; sample: in vitro; concentration: 250 nM; notes: 60-bp whole probe; together with: salmon DNA 0.4 mg/ml; baseline: random background probes; reading: higher = stronger binding; all sequences stand within: GCCTAGCAC … GTCTTGATTCGCTTGACGCTGCTG
# Target: Interferon regulatory factor 7, full length, phosphomimetic (IRF7, Homo sapiens, UniProt Q92985, residues 1-503, S101K/S471D/S472D/S475D/S476D/S477D/S483D/S484D/S487D)
# Construct (chain): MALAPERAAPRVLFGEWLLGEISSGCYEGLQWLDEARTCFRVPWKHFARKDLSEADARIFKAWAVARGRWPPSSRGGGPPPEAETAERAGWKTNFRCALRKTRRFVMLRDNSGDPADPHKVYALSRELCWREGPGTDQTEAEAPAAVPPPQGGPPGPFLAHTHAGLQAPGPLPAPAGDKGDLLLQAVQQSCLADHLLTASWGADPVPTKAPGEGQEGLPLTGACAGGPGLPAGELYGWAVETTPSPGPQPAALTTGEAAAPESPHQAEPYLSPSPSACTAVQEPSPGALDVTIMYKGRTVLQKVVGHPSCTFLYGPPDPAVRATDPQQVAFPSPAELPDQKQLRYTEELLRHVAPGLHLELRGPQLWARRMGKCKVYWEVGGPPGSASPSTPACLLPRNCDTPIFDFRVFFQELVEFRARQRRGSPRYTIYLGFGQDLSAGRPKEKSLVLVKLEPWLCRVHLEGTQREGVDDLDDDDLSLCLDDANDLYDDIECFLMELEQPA
Oligonucleotide,log fluorescence
TTAGTTTTCAGTTTCGATTAGTGCTAG,10.5 z-score
GACGGTTTCGTCTTTCGGGACGTGCTA,9.21 z-score
TTAGGACTGCTACTGCTTCAGTGCTAG,-0.528 z-score
TTAGGTATCCTACTCCTTTAGTGCTAG,0.0926 z-score
GAGGGTTTCCTTTCCCTGACGTGCTAG,3.47 z-score
GACGGACAGGACTATCGGGACGTGCTA,-0.747 z-score
TTAGGACTGGGTCTCGCTTAGTGCTAG,0.418 z-score
GACGGCATCGACACTGGGGACGTGCTA,-0.752 z-score
TTAGGCTTCGGGTATCGGTTAGTGCTA,0.351 z-score

# Set 2 — method: protein binding microarray; molecule type: double-stranded DNA, one strand shown; sample: in vitro; concentration: not given; baseline: not given; reading: higher = stronger binding
# Target: Histone acetyltransferase KAT6A, both winged helices, GST fusion (KAT6A, Homo sapiens, UniProt Q92794, residues 1-181)
# Notes: 8-mer, flanks averaged, mean of 2 arrays, mostly near background
# Construct (chain): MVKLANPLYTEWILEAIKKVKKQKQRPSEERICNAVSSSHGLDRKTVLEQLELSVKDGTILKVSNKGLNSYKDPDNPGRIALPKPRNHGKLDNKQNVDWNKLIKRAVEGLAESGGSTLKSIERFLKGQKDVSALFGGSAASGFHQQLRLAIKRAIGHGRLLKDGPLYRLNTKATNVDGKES
Oligonucleotide,E-score
ACGCCGTC,0.296
CAATTCCC,-0.146
GGGACCTA,-0.0423
ATGTCCTG,-0.00986
AACGTCGG,0.135
GCGAGCTA,0.0315
AAGTGCCT,-0.255
ATCTTCCA,-0.101
CACGATGA,-0.019
AAGGTACC,-0.0698

# Set 3 — method: RNA Bind-n-Seq; molecule type: RNA; sample: in vitro; concentration: 365 nM; baseline: no-protein control; reading: higher = stronger binding
# Target: RNA binding protein fox-1 homolog 2, RRM domain, GST-SBP tag (RBFOX2, Homo sapiens, UniProt O43251-10, residues 100-194)
# Notes: natural RNA segment, single round, ends assumed
# Target sequence (chain): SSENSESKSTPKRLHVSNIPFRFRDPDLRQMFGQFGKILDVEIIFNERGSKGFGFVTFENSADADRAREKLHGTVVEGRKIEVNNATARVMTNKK
Oligonucleotide,RBNS enrichment (R)
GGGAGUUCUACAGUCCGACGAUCCUGCAAAAAAAAGUUAAGCCAUAACAGCCUUUUUAUAUUUUAAUUUGUCACCUUUGCAUUGCAGAAUAAAUACCCAAUAACCGUUUUUAUAGGAGUUGCUCCUCUUUGCAUGGAAUUCUCGGGUGCCAA,2.6
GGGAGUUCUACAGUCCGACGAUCAUUCUUGAGCUGAAAAUAAAUAAACCAGGAUGGCAGGGACCAACCCCUAAUCCCUCCCCAGCGGCAAGCCCCUCUUUUCAGAGUGGGCAGAGGGUUGCCUAUGGUGGGCAUGGAAUUCUCGGGUGCCAA,0.447
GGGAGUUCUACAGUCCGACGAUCAGGCUUUCCAACGUUAUCCCUGUAGAGAUCAUCUUUACAGUUCCUCGGGAAAAUGUGAAUGUGCCGCGUUUUGUUUUCAAUAUUGUAUGAAAACAGGAAAAAAAUAAAACUGGAAUUCUCGGGUGCCAA,0.568
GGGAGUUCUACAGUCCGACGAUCCCUAAAAGCAGAUGUUUUGCCAAAUCUCCAAACUAGAGGACAAAGACAAGGGGACAAUGACCAUCAAUUCAUCUAAUCAGGAAUUGUGAUGGCUUCCUAAGGAAUCUCUGUGGAAUUCUCGGGUGCCAA,0.434
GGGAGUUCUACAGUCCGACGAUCAUAAGUGACCAAGACGGGACUUUCCACAUUUUAGUCUACAUUCUAAUCUUAAAGGAAUAAAGCACUGAAUUGGGACUAACAUUCUGAUAGGUUGCACCCUUAAGAGUAUUUGGAAUUCUCGGGUGCCAA,0.413
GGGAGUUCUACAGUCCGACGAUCGGGUGCUCUCCAGACCCGUGCAGGGGCCGCCUGGGGUACACGGAAGGAAGUUGAGUCCUAGUGCAAAAUGCAGGCGGACGUUGCCAGAGAGUGCGCAGCAAAUGACCUUCUGGAAUUCUCGGGUGCCAA,0.786
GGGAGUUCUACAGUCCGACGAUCGUAUUUUGAGAAAUGGCACAAAAACAGGCAGUCAUCUUUAAGGGCUAUGCCUAGGCAAACUACUAACAUGCAUUGUGAGAAUGCCGUGUAUACCUCACGUACUGUGUACUUGGAAUUCUCGGGUGCCAA,0.477
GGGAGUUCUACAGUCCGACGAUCCUGAGUCCAUGCACCUGCCCCAGGAGGGGGCCAUUGUCCUAGGGACCGCCUAUCACGCCGACUGCUUCCCGAGGCCCCGGGUGGGCUAAGGGGCUGGGUCUGCUUCACCAUGGAAUUCUCGGGUGCCAA,0.333
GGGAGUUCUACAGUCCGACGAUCCUGCGGGGGGAGGACACACGGAUGCUCAGGCCCAGGCUUUGCCAGGUCCGAAGCGGGCCCCUCUCUGUCCUGCCUCUUUUCACCUGCUCACGCCCUCCCACCCCCACCCUUGGAAUUCUCGGGUGCCAA,0.219
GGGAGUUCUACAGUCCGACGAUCCACUCAGAGGUCUGAGAGCCUACCAUGUGGAACAGUGUAAGCAGAAAGGCCAUCUUCCCACUGUCCUGCCAGCAGCUGUUCUGGGUAGCAGCAAUUGCAGAGUGACCAGUUGGAAUUCUCGGGUGCCAA,0.349

# Mixed results
Substance,target,assay,test system,conditions,scale,quantity,result
"PhoQ, residues 284 288 289 292 302 303 SQSLSM","PhoP, residues 12 14 15 18 19 VHSCL (Escherichia coli, UniProt P23836)","Sort-seq, item: YFP reporter",E. coli,"PhoQ-PhoP variant library, together with: 10 µM Mg2+","baseline: high Mg2+ state, higher = stronger signaling",fold induction,11

# A few entries again (set 3):
Oligonucleotide,RBNS enrichment (R)
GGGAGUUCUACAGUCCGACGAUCCACUCAGAGGUCUGAGAGCCUACCAUGUGGAACAGUGUAAGCAGAAAGGCCAUCUUCCCACUGUCCUGCCAGCAGCUGUUCUGGGUAGCAGCAAUUGCAGAGUGACCAGUUGGAAUUCUCGGGUGCCAA,0.349
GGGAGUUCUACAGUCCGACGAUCAGGCUUUCCAACGUUAUCCCUGUAGAGAUCAUCUUUACAGUUCCUCGGGAAAAUGUGAAUGUGCCGCGUUUUGUUUUCAAUAUUGUAUGAAAACAGGAAAAAAAUAAAACUGGAAUUCUCGGGUGCCAA,0.568
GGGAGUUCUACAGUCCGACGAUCCCUAAAAGCAGAUGUUUUGCCAAAUCUCCAAACUAGAGGACAAAGACAAGGGGACAAUGACCAUCAAUUCAUCUAAUCAGGAAUUGUGAUGGCUUCCUAAGGAAUCUCUGUGGAAUUCUCGGGUGCCAA,0.434
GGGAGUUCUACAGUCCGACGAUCGUAUUUUGAGAAAUGGCACAAAAACAGGCAGUCAUCUUUAAGGGCUAUGCCUAGGCAAACUACUAACAUGCAUUGUGAGAAUGCCGUGUAUACCUCACGUACUGUGUACUUGGAAUUCUCGGGUGCCAA,0.477
